Results from different studies.
Each line is one published result; not all experiments were run side by side. Numbers after ± are the reported error. Non-standard residues stand in square brackets, D forms with d. Square brackets hold non-standard residues; d marks the D form. Primed or numbered codes have the meaning given here. No end group written: not given here. * marks the point of attachment.
B1: DBI (Mus musculus, UniProt P31786); Cy5 label; sequence looked up; chain MSQAEFDKAAEEVKRLKTQPTDEEMLFIYSHFKQATVGDVNTDRPGLLDLKGKAKWDSWNKLKGTSKESAMKTYVEKVDELKKKYGI
B2: Fras1 CSPG domains (Mus musculus); chain TPSLHVNGSLTLGIGSMKPLDFSLLNIQHQDGRVEDLLFHVVSTPTNGQLLLSRNGKEVQLEKAGHFSWKDVNEKKVRFVHSKEKLRKGYFSLKISDQQFFSEPQLINIQAFSTQAPYVLRNEVLHVSKGERATITTQLLDIRDDDNPQDVVVNVLDPPLHGQLLQMPPAPAASIYQFHLDELSRGLLLYAHDGSDSTSDIIVFQANDGHSFQNILFHVKNIPKNDRALRLVTNSMVWVPEGGMLKITNRILKAQAPGVRADDIIYKITHSRPQFGEVVLLMNLPADSPAGPAEEGHHLPDGRMATPISTFTQQDIDDGVVWYRHLGAPTQSDSFRFQVSSATSAQEHLESHMFNIAILPQAPEAPKLSLGTSLHMTAREDGLSVIQPQSLSFVKAESPSGKIIYNITVPLHPNQGIIEHRDRPHSPIQYFTQEDINQGQIMYRPPVAPPHLQEIMAFSFAGLPESVKFYFTVSDGQHTSPEMALTIHLLHSDLQPPAFQVKAPLLEVSPGGRTSLGLQLLVRDAQVVPEELFFQLQKSPQHGMLVKYTAKSSVTMAAGDTFTYDEVERNVLQYVHDGSSAWEDSLEISVTDGLTVTTSEVKVEVSPSENRGPRLAPGSSLSMTVASQHTAIITRSHLAYVDDSSSDPEIWIRLSSLPLYGVLFRSSGPDMDELSGDSNFTMEDINKKNIRYSAVFETDGHSVTDGFHFSVSDMDGNHVDNQVFTITVTPAENPPHIIAFADLITVDEGGRAPLSLHHFFATEDQDNLQDDAVIKLSALPKYGCIENTGTGDRFGPGANSELEASFPIQDVLENYIYYFQSVHESIEPTHDVFSFYVSDGSGRSEIHSINITIERKNDEPPRMTLRPLGVRLSSGVAISNSSLSLQDLDTPDNELIFVLMKKPDHGHLLRRSTASDPLENGTVLDQGSSFTYQDVLAGLVGYLPGDIYMAVDEFRFSLTDGLHVDTGRMEIYIELPSTNIPHLAINRGLQLSAGSVARITEQHLKATDTDSEAGQVVYIMKEDPGAGRLLMAKADNLEQISVRGPIRSFTQADVSQGQIEYSHGPGEPGGSFAFKFDVVDGEGNKLADQSFSIGVLEDKSPPVVITNRGLVLDENSVEKITTAQLSATDQDSKPTELIYRITTQPQLGHLEHVASPGIQISSFTQADLASRNVQYVRSSGTGKQSDAFSFVLSDGLHEVTQTFPITIHPVDDARPLVQNRGMRVQEGVRKTITEFELKAVDVDTEAESITFTIVQPPRHGTIERTARGQRFHQTSSFTMEDIYQNRVSYSHDGSNSLKDRFTFTVSDGTNPFFIIEEGGEEIMTAAPQQFHVDILPVDDGTPRIVTNLGLQWLEYMDGKATNLITKKELLTVDPDTEDSQLIYEVTTGPMHGYLENKLQPGRAAATFTQEHVNLGLIRYVLYEEKIQKVMDSFQFLVKDSKPNV
B3: CDH1 residues 1-221 (Homo sapiens); chain DWVIPPISCPENEKGPFPKNLVQIKSNKDKEGKVFYSITGQGADTPPVGVFIIERETGWLKVTEPLDRERIATYTLFSHAVSSNGNAVEDPMEILITVTDQNDNKPEFTQEVFKGSVMEGALPGTSVMEVTATDADDDVNTYNAAIAYTILSQDPELPDKNMFTINRNTGVISVVTTGLDRESFPTYTLVVQAADLQGEGLSTTATAVITVTDTNDNPPIF
B4: IFNG (Homo sapiens, UniProt P01579); sequence looked up; chain QDPYVKEAENLKKYFNAGHSDVADNGTLFLGILKNWKEESDRKIMQSQIVSFYFKLFKNFKDDQSIQKSVETIKEDMNVKFFNSNKKKRDDFEKLTNYSVTDLNVQRKAIHELIQVMAELSPAAKTGKRKRSQMLFRG
B5: SRPK1 (Homo sapiens, UniProt Q96SB4); chain MERKVLALQARKKRTKAKKDKAQRKSETQHRGSAPHSESDLPEQEEEILGSDDDEQEDPNDYCKGGYHLVKIGDLFNGRYHVIRKLGWGHFSTVWLSWDIQGKKFVAMKVVKSAEHYTETALDEIRLLKSVRNSDPNDPNREMVVQLLDDFKISGVNGTHICMVFEVLGHHLLKWIIKSNYQGLPLPCVKKIIQQVLQGLDYLHTKCRIIHTDIKPENILLSVNEQYIRRLAAEATEWQRSGAPPPSGSAVSTAPQPKPADKMSKNKKKKLKKKQKRQAELLEKRMQEIEEMEKESGPGQKRPNKQEESESPVERPLKENPPNKMTQEKLEESSTIGQDQTLMERDTEGGAAEINCNGVIEVINYTQNSNNETLRHKEDLHNANDCDVQNLNQESSFLSSQNGDSSTSQETDSCTPITSEVSDTMVCQSSSTVGQSFSEQHISQLQESIRAEIPCEDEQEQEHNGPLDNKGKSTAGNFLVNPLEPKNAEKLKVKIADLGNACWVHKHFTEDIQTRQYRSLEVLIGSGYNTPADIWSTACMAFELATGDYLFEPHSGEEYTRDEDHIALIIELLGKVPRKLIVAGKYSKEFFTKKGDLKHITKLKPWGLFEVLVEKYEWSQEEAAGFTDFLLPMLELIPEKRATAAECLRHPWLNS
B6: Leptin mature (Mus musculus, UniProt P41160); Pluronic P85 on lysines, disulfide linker; sequence looked up; chain VPIQKVQDDTKTLIKTIVTRINDISHTQSVSAKQRVTGLDFIPGLHPILSLSKMDQTLAVYQQVLTSLPSQNVLQIANDLENLRDLLHLLAFSKSCSLPQTSGLQKPESLDGVLEASLYSTEVVALSRLQGSLQDILQQLDVSPEC
B7: FGA/FGB/FGG 20-644 (Homo sapiens); chain 1 ADSGEGDFLAEGGGVRGPRVVERHQSACKDSDWPFCSDEDWNYKCPSGCRMKGLIDEVNQDFTNRINKLKNSLFEYQKNNKDSHSLTTNIMEILRGDFSSANNRDNTYNRVSEDLRSRIEVLKRKVIEKVQHIQLLQKNVRAQLVDMKRLEVDIDIKIRSCRGSCSRALAREVDLKDYEDQQKQLEQVIAKDLLPSRDRQHLPLIKMKPVPDLVPGNFKSQLQKVPPEWKALTDMPQMRMELERPGGNEITRGGSTSYGTGSETESPRNPSSAGSWNSGSSGPGSTGNRNPGSSGTGGTATWKPGSSGPGSTGSWNSGSSGTGSTGNQNPGSPRPGSTGTWNPGSSERGSAGHWTSESSVSGSTGQWHSESGSFRPDSPGSGNARPNNPDWGTFEEVSGNVSPGTRREYHTEKLVTSKGDKELRTGKEKVTSGSTTTTRRSCSKTVTKTVIGPDGHKEVTKEVVTSEDGSDCPEAMDLGTLSGIGTLDGFRHRHPDEAAFFDTASTGKTFPGFFSPMLGEFVSETESRGSESGIFTNTKESSSHHPGIAEFPSRGKSSSYSKQFTSSTSYNRGDSTFESKSYKMADEAGSEADHEGTHSTKRGHAKSRPVRGIHTSPLGKPSLSP; chain 2 QGVNDNEEGFFSARGHRPLDKKREEAPSLRPAPPPISGGGYRARPAKAAATQKKVERKAPDAGGCLHADPDLGVLCPTGCQLQEALLQQERPIRNSVDELNNNVEAVSQTSSSSFQYMYLLKDLWQKRQKQVKDNENVVNEYSSELEKHQLYIDETVNSNIPTNLRVLRSILENLRSKIQKLESDVSAQMEYCRTPCTVSCNIPVVSGKECEEIIRKGGETSEMYLIQPDSSVKPYRVYCDMNTENGGWTVIQNRQDGSVDFGRKWDPYKQGFGNVATNTDGKNYCGLPGEYWLGNDKISQLTRMGPTELLIEMEDWKGDKVKAHYGGFTVQNEANKYQISVNKYRGTAGNALMDGASQLMGENRTMTIHNGMFFSTYDRDNDGWLTSDPRKQCSKEDGGGWWYNRCHAANPNGRYYWGGQYTWDMAKHGTDDGVVWMNWKGSWYSMRKMSMKIRPFFPQQ; chain 3 YVATRDNCCILDERFGSYCPTTCGIADFLSTYQTKVDKDLQSLEDILHQVENKTSEVKQLIKAIQLTYNPDESSKPNMIDAATLKSRKMLEEIMKYEASILTHDSSIRYLQEIYNSNNQKIVNLKEKVAQLEAQCQEPCKDTVQIHDITGKDCQDIANKGAKQSGLYFIKPLKANQQFLVYCEIDGSGNGWTVFQKRLDGSVDFKKNWIQYKEGFGHLSPTGTTEFWLGNEKIHLISTQSAIPYALRVELEDWNGRTSTADYAMFKVGPEADKYRLTYAYFAGGDAGDAFDGFDFGDDPSDKFFTSHNGMQFSTWDNDNDKFEGNCAEQDGSGWWMNKCHAGHLNGVYYQGGTYSKASTPNGYDNGIIWATWKTRWYSMKKTTMKIIPFNRLTIGEGQQHHLGGAKQAGDV
B8: FDX1 (Homo sapiens, UniProt P10109); Alexa Fluor 488 on cysteine; sequence looked up; chain SSSEDKITVHFINRDGETLTTKGKVGDSLLDVVVENNLDIDGFGACEGTLACSTCHLIFEDHIYEKLDAITDEENDMLDLAYGLTDRSRLGCQICLTKSMDNMTVRVPETVADARQSIDVGKTS
B9: adrenodoxin (Bos taurus, UniProt P00257); RED dye on amines; sequence looked up; chain SSSEDKITVHFINRDGETLTTKGKIGDSLLDVVVQNNLDIDGFGACEGTLACSTCHLIFEQHIFEKLEAITDEENDMLDLAYGLTDRSRLGCQICLTKAMDNMTVRVPDAVSDARESIDMGMNSSKIE
Chain of UniProt P06400 (whole entry, unmodified, looked up): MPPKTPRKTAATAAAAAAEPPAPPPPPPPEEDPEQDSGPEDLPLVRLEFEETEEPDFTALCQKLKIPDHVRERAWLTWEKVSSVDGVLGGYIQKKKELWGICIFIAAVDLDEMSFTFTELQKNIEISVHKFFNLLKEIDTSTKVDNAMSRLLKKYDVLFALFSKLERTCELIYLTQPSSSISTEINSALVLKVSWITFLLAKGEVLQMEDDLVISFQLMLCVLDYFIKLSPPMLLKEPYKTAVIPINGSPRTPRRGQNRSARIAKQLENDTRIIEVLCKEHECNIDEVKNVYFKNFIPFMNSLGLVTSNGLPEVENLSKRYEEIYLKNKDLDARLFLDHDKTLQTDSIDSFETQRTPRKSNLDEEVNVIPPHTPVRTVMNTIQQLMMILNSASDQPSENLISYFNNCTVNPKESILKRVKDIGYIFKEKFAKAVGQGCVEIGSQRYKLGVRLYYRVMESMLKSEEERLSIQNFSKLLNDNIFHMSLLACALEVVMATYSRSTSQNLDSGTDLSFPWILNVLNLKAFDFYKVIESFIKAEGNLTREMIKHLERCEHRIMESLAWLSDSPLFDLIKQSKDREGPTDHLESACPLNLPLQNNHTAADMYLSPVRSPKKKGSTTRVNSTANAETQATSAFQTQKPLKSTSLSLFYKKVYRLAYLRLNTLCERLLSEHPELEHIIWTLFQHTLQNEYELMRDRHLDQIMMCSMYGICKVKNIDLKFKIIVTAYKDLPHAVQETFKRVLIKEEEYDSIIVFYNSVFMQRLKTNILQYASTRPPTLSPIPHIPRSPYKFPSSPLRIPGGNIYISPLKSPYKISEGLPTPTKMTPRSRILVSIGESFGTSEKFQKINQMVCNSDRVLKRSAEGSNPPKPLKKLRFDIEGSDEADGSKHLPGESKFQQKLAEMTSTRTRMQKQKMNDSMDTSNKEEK
Chain of UniProt P27694 (whole entry, looked up): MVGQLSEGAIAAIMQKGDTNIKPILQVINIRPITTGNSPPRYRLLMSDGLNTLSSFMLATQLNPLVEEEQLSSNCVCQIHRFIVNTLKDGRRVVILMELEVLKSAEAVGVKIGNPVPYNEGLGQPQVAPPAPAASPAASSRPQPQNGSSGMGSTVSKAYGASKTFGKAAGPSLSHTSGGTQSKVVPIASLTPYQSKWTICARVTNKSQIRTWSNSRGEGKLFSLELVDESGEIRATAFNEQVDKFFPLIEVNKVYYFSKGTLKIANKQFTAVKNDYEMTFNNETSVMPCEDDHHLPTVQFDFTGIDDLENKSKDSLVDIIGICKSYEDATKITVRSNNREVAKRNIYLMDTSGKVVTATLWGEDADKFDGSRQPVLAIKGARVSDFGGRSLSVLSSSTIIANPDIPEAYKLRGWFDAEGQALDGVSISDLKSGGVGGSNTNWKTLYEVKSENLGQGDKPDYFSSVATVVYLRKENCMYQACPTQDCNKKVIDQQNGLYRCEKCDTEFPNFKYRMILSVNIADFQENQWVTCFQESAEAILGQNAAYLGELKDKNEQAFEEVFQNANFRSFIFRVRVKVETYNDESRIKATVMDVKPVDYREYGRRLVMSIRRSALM
Chain of UniProt P45481 (whole entry, looked up): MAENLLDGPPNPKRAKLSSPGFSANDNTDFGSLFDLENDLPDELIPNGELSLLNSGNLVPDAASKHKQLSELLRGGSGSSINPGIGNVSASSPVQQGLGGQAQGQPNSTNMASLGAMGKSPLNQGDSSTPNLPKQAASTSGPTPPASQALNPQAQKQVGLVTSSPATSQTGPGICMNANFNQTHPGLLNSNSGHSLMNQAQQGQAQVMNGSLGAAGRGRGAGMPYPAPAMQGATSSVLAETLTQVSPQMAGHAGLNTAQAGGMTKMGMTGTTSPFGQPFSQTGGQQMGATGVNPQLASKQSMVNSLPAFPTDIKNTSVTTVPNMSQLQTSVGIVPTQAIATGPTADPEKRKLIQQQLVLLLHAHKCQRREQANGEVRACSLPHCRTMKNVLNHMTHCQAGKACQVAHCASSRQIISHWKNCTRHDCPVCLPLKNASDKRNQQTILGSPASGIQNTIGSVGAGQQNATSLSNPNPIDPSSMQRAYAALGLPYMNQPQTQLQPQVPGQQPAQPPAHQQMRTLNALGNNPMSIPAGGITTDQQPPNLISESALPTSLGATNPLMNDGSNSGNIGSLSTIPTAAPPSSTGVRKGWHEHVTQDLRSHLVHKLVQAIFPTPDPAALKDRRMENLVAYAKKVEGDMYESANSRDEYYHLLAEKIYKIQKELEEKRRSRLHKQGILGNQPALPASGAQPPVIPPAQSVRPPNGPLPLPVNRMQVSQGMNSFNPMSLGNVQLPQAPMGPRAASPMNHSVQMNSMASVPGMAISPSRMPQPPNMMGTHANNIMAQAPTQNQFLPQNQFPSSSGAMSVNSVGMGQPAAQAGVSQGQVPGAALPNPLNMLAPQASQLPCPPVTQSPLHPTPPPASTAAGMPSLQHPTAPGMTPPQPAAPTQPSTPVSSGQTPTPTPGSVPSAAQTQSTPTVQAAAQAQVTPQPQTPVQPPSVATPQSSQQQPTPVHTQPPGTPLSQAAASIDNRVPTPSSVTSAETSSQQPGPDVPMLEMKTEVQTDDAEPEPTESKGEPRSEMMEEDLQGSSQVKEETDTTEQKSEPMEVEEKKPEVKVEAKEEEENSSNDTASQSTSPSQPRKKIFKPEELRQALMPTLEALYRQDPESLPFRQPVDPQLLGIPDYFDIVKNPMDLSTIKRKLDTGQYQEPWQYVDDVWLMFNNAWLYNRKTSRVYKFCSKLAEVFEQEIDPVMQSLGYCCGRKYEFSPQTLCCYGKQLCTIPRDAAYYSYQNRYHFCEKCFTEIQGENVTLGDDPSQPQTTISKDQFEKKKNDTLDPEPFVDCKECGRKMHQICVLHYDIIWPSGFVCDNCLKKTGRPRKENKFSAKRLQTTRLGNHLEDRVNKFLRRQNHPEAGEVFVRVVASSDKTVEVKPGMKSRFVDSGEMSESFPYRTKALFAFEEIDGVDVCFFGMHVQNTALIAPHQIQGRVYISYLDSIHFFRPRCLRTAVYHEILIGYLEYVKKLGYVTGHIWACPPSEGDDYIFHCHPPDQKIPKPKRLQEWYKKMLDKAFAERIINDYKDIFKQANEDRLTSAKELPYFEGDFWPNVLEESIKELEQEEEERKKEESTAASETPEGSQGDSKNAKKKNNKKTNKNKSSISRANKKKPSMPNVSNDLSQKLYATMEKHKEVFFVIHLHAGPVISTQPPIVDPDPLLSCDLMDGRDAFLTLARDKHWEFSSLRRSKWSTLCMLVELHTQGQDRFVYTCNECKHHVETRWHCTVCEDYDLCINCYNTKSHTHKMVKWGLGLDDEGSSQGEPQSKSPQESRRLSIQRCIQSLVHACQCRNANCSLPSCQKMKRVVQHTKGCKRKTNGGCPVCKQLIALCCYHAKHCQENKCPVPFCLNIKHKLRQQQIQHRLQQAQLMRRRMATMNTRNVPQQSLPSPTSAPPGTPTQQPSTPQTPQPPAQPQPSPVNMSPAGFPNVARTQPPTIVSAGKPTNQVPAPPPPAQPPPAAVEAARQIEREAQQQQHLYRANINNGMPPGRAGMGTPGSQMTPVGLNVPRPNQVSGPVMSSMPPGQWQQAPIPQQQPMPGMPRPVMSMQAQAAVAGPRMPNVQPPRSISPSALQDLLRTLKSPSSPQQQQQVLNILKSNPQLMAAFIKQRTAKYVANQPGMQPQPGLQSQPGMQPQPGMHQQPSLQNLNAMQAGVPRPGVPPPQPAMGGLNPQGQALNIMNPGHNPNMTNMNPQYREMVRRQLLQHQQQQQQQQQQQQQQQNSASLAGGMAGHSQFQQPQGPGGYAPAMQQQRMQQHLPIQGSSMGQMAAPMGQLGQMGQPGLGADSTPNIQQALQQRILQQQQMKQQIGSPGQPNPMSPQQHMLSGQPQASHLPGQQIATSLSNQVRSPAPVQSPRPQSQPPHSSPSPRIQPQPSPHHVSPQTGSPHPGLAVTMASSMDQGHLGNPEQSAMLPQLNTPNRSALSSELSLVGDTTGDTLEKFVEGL
Chain of UniProt P15260 (whole entry, looked up): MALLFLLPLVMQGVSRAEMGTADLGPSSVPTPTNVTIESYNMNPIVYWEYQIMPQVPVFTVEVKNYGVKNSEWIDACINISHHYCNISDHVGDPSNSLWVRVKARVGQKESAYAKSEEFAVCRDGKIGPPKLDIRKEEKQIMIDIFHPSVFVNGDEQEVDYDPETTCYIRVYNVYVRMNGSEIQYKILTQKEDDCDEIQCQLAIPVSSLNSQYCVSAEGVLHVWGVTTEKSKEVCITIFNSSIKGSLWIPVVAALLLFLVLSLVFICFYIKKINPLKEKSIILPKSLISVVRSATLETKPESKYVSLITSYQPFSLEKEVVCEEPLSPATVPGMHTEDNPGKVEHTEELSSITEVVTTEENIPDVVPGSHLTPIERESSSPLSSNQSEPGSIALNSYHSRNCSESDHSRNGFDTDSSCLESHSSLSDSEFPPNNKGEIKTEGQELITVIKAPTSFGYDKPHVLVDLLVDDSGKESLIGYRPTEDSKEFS
Chain of UniProt Q02318 (whole entry, looked up): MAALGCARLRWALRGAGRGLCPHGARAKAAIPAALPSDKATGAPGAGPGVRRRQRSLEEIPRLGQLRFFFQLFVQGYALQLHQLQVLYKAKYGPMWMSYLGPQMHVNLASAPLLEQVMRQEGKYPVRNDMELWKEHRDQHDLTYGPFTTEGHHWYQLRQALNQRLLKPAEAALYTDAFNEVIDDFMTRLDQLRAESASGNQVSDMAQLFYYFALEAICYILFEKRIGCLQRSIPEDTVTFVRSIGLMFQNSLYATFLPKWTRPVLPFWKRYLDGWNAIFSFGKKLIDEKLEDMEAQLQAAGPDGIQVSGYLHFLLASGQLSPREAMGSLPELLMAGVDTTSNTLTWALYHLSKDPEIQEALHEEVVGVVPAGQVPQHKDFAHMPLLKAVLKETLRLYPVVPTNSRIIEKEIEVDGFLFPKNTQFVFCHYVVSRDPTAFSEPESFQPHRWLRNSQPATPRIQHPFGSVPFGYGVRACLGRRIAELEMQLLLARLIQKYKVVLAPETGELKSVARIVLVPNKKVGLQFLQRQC

ATRIP fragment E8A  Kd (RPA1 1-120 (Homo sapiens, UniProt P27694); competition with ATRIP probe, fluorescence polarisation; pH 7.5, NaCl 75 mM): 22 µM
GVVEVDAAV[pT]PEERHLSKMQQNGY (APP 659-682 (UniProt P05067-4); pT668; pT = C[C@@H](OP(=O)(O)O)[C@H](N)C(=O)O; sequence looked up)  Kd (PIN1 WW domain 1-50 (Homo sapiens, UniProt Q13526); NMR titration; peptide; pH 6.9, 25 °C, trans isomer): 22.4 µM
LDYHFGLEEGEGIRDLFD (E2F1 409-426 (Homo sapiens, UniProt Q01094); sequence looked up)  Kd (RB1 55-787 del245-267/del582-642, phosphorylated by Cdk2-CycA (UniProt P06400); ITC; pH 8.0, NaCl 100 mM, together with: LxCxE peptide 100 µM): 0.75 µM
B1 (DBI)  Kd (CPT1A 381-469 W452A, Cy3 label (Rattus norvegicus, UniProt P32198); FRET; 24 °C): 0.053 µM
{FITC}-GFID[pS]D[pT]DVEEE-NH2 (MDC1 phosphopeptide; FITC N-terminus, pS5, pT7, C-terminal amide; FITC = O=C1OC2(c3ccc(O)cc3Oc3cc(O)ccc32)c2ccc(NC(=S)*)cc21; pS = N[C@@H](COP(=O)(O)O)C(=O)O; pT = C[C@@H](OP(=O)(O)O)[C@H](N)C(=O)O)  Kd (TOPBP1 641-746 R681E/K682E (Homo sapiens, UniProt Q92547); fluorescence polarisation; peptide; NaCl 150 mM): 280 ± 60 µM
{FITC′-Ahx}-ERLEAAACEVNDLG-NH2 (PRDM2 residues 254-267 (Homo sapiens); N-terminal fluorescein, aminohexanoyl spacer, C-terminal amide; FITC′ = fluorescein; Ahx = NCCCCCC(=O)O)  Kd (RB1 372-581 linked 636-787 (Homo sapiens, UniProt P06400); ITC; peptide; competition): 70 ± 10 µM
B2 (Fras1 CSPG domains)  Kd (Vwa2 (Mus musculus, UniProt Q70UZ7); SPR; pH 7.4, 25 °C, NaCl 0.15 M, Langmuir fit): 0.075 µM
MPIFLDHILNKFWILHYASG (SPAM peptide; C-terminal propargylglycine, ROX label)  Kd (CD274 ectodomain (Homo sapiens); fluorescence polarisation; peptide; 100 nM): 0.119 ± 0.033 µM
{FITC}-GFID[pS]D[pT]DVEEE-NH2 (peptide; N-terminal FITC, pS5, pT7, C-terminal amide; FITC = O=C1OC2(c3ccc(O)cc3Oc3cc(O)ccc32)c2ccc(NC(=S)*)cc21; pS = N[C@@H](COP(=O)(O)O)C(=O)O; pT = C[C@@H](OP(=O)(O)O)[C@H](N)C(=O)O)  Kd (TOPBP1 641-746 M689A (Homo sapiens, UniProt Q92547); fluorescence polarisation; peptide; pH 7.5, NaCl 150 mM): 15 ± 1 µM
B3 (CDH1 residues 1-221)  Kd (KLRG1 C-type lectin domain 75-186 (Homo sapiens, UniProt Q96E93); SPR; equilibrium fit, Scatchard analysis): 100 µM
B4 (IFNG)  Kd (IFNGR1 (Homo sapiens, UniProt P15260); radioligand binding; Raji; apparent): 0.0001 µM
{Cy5.5″}-TNYLFSPNGPIARAWK(DOTA)-NH2 (peptide; N-terminal Cy5.5, C-terminal DOTA; Cy5.5″ = near-infrared fluorescent dye Cy5.5; DOTA = O=C(O)CN1CCN(CC(=O)O)CCN(CC(=O)*)CCN(CC(=O)O)CC1)  Kd (EPHB4 16-539 (Homo sapiens, UniProt P54760); SPR; peptide): 0.00101 µM
B5 (SRPK1)  Kd (SRSF1, about six phosphoserines (Homo sapiens, UniProt Q07955); rapid quench flow single-turnover kinetics; pH 7.4, together with: 32P-ATP 100 µM): 0.25 µM
GSHMSDLACRLLGQSMDESGLPQLTSYDCEVNAPIQGSRNLLQGEELLRALDQVN (HIF1A CTAD residues 776-826 (Homo sapiens, UniProt Q16665))  Kd (Crebbp 340-439 (Mus musculus, UniProt P45481); competition with ligand, fluorescence polarisation; peptide; pH 6.8, 298 K, NaCl 50 mM, apparent): 0.009 ± 0.002 µM
B6 (Leptin mature)  Kd (LEPR 22-839 (Homo sapiens, UniProt P48357); SPR; pH 7.4, NaCl 150 mM): 0.00109 µM
FCGRT/B2M (Homo sapiens)  Kd (F9/ALB FIX-albumin fusion, cleavable linker (Homo sapiens); SPR): 0.164 µM
B7 (FGA/FGB/FGG 20-644)  Kd (ITGA2B/ITGB3 heterodimer (Homo sapiens); radioligand binding; washed platelets; together with: ADP, Ca2+ 2 mM, Mg2+ 1 mM, Zn2+ 50 µM): 0.665 µM
GSFGPDLRAGD (peptide)  Kd (PPIC fragment (Homo sapiens); NMR titration; peptide; apparent, cis and trans isomers): 146 ± 4 µM
B8 (FDX1)  Kd (FDXR (Bos taurus, UniProt P08165); fluorescence titration; pH 7.4): 0.019 ± 0.005 µM
B9 (adrenodoxin)  Kd (CYP27A1 (Homo sapiens, UniProt Q02318); MST; pH 7.4, 25 °C, oxidized, single-site model): 0.2 µM
